# Experimental data gathered from unrelated publications.
# Each line is one published result; not all experiments were run side by side. Numbers after ± are the reported error.
# PROK: Proteinase K (PROK, Engyodontium album, UniProt P06873)
# UniProt P06873, sequence (whole entry, looked up): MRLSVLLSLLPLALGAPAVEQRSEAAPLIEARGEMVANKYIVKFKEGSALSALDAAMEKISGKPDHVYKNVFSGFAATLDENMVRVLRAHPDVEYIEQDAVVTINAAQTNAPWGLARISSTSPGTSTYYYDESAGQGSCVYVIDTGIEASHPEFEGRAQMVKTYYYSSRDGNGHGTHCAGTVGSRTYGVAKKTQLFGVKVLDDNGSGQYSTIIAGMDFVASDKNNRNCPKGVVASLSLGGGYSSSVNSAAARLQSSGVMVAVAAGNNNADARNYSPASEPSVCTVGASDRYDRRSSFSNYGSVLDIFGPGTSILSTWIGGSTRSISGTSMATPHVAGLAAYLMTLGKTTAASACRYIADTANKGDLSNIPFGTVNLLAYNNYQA
# CYP1A2: Cytochrome P450 1A2 (CYP1A2, Homo sapiens, UniProt P05177)
# UniProt P05177, sequence (whole entry, looked up): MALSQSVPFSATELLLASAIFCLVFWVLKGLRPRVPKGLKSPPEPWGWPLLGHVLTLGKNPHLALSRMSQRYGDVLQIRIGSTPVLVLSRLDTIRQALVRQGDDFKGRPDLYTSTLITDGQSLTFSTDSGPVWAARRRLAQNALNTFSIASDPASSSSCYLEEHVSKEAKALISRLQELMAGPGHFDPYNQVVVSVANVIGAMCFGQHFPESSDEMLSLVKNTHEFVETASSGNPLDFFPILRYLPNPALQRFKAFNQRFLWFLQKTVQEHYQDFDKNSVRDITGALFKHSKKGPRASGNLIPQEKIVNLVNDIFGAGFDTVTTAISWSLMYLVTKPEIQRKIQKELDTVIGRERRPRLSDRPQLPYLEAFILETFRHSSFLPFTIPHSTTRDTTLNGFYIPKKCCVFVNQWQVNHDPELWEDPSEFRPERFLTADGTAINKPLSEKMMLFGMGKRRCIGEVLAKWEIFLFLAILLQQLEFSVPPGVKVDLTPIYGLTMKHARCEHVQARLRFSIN
# UniProt P08684, sequence (whole entry, looked up): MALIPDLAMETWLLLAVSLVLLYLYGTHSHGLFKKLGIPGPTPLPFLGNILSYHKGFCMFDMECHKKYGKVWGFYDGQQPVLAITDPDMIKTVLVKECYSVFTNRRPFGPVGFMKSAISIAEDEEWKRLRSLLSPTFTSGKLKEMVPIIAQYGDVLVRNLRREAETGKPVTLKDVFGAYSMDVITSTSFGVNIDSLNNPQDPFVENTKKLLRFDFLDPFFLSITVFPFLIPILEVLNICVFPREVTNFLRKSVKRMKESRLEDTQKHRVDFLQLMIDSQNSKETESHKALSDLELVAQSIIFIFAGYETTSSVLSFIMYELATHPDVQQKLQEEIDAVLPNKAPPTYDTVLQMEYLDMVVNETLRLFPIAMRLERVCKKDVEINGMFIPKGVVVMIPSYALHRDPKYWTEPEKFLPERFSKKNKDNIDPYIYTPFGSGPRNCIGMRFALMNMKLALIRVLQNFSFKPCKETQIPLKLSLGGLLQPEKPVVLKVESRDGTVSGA
# UniProt P00761, sequence (whole entry, looked up): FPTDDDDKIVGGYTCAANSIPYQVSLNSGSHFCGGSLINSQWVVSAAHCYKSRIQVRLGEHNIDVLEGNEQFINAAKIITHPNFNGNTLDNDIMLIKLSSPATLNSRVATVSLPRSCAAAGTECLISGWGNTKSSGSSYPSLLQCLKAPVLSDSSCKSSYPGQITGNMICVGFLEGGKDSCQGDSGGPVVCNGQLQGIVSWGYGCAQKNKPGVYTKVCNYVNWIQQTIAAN
# UniProt P05181, sequence (whole entry, looked up): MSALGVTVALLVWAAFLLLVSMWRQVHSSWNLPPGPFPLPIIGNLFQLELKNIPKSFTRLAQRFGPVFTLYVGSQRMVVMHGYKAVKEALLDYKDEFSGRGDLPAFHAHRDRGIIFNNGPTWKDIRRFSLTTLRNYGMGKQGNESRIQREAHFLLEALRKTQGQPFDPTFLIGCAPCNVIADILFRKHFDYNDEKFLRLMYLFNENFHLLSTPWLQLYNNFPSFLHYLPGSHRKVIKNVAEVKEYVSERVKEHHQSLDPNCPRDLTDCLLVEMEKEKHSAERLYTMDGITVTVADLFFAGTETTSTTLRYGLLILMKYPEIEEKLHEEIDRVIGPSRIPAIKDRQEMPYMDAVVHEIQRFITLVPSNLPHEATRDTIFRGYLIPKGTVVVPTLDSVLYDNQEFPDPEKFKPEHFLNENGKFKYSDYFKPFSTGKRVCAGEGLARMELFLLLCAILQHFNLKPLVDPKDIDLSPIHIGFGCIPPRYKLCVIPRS
# UniProt Q14524, sequence (whole entry, looked up): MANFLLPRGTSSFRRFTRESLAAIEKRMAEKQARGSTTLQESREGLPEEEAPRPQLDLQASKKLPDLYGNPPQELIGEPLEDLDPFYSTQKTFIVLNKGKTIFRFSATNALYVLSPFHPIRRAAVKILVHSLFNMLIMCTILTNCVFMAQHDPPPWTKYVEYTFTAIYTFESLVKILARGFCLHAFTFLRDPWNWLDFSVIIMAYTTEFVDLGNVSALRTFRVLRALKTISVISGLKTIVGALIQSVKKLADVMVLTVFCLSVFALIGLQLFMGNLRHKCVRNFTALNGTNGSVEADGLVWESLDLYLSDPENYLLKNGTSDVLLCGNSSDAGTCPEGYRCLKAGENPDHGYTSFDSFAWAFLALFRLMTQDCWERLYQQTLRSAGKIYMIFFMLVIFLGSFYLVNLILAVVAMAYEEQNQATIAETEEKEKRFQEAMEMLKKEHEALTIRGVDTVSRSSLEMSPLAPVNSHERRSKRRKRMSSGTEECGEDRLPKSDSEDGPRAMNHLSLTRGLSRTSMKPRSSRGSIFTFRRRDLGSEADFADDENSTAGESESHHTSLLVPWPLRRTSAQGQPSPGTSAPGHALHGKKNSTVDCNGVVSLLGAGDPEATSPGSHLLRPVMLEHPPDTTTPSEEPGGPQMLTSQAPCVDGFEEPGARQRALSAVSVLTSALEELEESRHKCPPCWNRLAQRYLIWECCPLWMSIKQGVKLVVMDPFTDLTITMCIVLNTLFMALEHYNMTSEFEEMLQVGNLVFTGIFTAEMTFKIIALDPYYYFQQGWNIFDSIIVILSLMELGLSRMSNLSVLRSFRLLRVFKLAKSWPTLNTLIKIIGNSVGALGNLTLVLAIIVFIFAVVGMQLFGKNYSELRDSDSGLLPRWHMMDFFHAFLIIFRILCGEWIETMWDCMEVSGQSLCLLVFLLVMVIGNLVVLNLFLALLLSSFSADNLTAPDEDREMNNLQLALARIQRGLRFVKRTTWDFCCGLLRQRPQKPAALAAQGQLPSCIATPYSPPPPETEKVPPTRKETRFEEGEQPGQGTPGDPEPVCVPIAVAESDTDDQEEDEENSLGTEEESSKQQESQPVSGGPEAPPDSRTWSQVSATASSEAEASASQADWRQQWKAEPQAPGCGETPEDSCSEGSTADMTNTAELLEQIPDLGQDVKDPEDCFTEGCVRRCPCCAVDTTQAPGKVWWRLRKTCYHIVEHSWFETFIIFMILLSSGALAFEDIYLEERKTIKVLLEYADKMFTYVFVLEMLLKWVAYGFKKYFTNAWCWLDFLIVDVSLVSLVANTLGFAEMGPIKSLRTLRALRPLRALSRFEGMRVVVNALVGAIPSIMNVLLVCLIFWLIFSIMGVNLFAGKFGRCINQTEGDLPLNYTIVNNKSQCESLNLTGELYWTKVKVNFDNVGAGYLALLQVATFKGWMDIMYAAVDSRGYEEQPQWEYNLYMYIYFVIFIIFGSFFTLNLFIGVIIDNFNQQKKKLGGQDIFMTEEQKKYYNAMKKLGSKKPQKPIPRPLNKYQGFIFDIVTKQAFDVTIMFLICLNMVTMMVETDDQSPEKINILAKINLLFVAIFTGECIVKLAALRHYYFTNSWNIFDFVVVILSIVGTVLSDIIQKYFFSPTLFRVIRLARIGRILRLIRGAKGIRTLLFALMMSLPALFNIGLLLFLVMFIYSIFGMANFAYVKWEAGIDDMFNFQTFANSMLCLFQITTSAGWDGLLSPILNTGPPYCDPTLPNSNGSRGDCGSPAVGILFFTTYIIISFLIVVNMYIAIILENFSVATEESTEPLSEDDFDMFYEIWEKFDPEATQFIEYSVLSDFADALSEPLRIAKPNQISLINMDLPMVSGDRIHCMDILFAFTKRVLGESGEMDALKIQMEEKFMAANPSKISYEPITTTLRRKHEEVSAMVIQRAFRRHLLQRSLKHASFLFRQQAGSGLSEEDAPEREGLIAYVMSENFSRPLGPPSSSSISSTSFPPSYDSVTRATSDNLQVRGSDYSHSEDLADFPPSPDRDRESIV
SMILES,target,test,test system,setting,scale,endpoint,result
C=CC(=O)Nc1cc(Nc2nccc(-c3cn(C)c4ccccc34)n2)c(OCC(F)(F)F)nc1N(C)CCN(C)C,"Cytochrome P450 3A4 (CYP3A4, Homo sapiens, UniProt P08684)","enzyme activity, inhibitor","human, liver microsomes","1 µM, midazolam probe",,activity vs control,77.7%
[64Cu+2].c1ccc(CNCc2ccc(CN3CCCNCCNCCCNCC3)cc2)nc1,CXCR4,,"NOD/SCID mouse, U87 and U87-stb-CXCR4 xenografts, spleen","iv, 90 min, no blocking dose, ex vivo",,tissue uptake,3.65 ± 0.07 %ID/g
CC[C@H](C)[C@H](NC(=O)[C@H](Cc1c[nH]cn1)NC(=O)[C@H](CC(N)=O)NC(=O)[C@H](Cc1ccccc1)NC(=O)[C@H](Cc1ccc(O)cc1)NC(=O)[C@H](Cc1ccc(O)cc1)NC(=O)[C@@H](NC(=O)[C@H](CCCNC(=N)N)NC(=O)CNC(=O)[C@H](CO)NC(=O)[C@H](CCC(=O)NCCOCCOCCOCCOC)NC(=O)[C@H](CCCNC(=N)N)NC(=O)[C@H](CO)NC(=O)[C@H](CCSC)NC(=O)[C@H](CCCNC(=N)N)NC(=O)[C@H](CCCCN)NC(=O)[C@H](CCC(=O)O)NC(=O)[C@H](Cc1c[nH]c2ccccc12)NC(=O)CNC(=O)[C@@H]1CCCN1C(=O)[C@@H]1CCCN1C(=O)[C@H](CC(C)C)NC(=O)[C@@H](N)CCCCN)C(C)C)C(=O)N[C@H](C(=O)N[C@@H](CC(N)=O)C(=O)N[C@@H](C)C(=O)N[C@@H](CO)C(=O)N[C@@H](CCC(N)=O)C(=O)N[C@@H](Cc1ccccc1)C(=O)N[C@@H](CCC(=O)O)C(=O)N[C@@H](CCCNC(=N)N)C(=O)N1CCC[C@H]1C(=O)N[C@@H](CO)C(=O)NCC(=O)O)[C@@H](C)O,PROK,"proteolysis, substrate, HPLC",,room temperature,"relative to: PEGylated over non-PEGylated variant, negative = more stable",ln rate constant ratio,-0.3 ± 0.3
CC(C)(O)c1ccccc1CC[C@H](c1cccc(/C=C/c2ccc3ccc(Cl)cc3n2)c1)S(=O)(=O)CC1(CC(=O)O)CC1,CYP1A2,inhibitor,human liver microsomes,"10 µM, pH 7.4, with: phenacetin",,inhibition,< 0%
CC[C@H](C)[C@H](NC(=O)[C@H](Cc1c[nH]cn1)NC(=O)[C@H](CC(N)=O)NC(=O)[C@H](Cc1ccccc1)NC(=O)[C@H](Cc1ccc(O)cc1)NC(=O)[C@H](CC(=O)N(CCOCCOCCOCCOC)CCOCCOCCOCCOC)NC(=O)[C@@H](NC(=O)[C@H](CCCNC(=N)N)NC(=O)CNC(=O)[C@H](CO)NC(=O)[C@H](CO)NC(=O)[C@H](CCCNC(=N)N)NC(=O)[C@H](CO)NC(=O)[C@H](CCSC)NC(=O)[C@H](CCCNC(=N)N)NC(=O)[C@H](CCCCN)NC(=O)[C@H](CCC(=O)O)NC(=O)[C@H](Cc1c[nH]c2ccccc12)NC(=O)CNC(=O)[C@@H]1CCCN1C(=O)[C@@H]1CCCN1C(=O)[C@H](CC(C)C)NC(=O)[C@@H](N)CCCCN)C(C)C)C(=O)N[C@H](C(=O)N[C@@H](CC(N)=O)C(=O)N[C@@H](C)C(=O)N[C@@H](CO)C(=O)N[C@@H](CCC(N)=O)C(=O)N[C@@H](Cc1ccccc1)C(=O)N[C@@H](CCC(=O)O)C(=O)N[C@@H](CCCNC(=N)N)C(=O)N1CCC[C@H]1C(=O)N[C@@H](CO)C(=O)NCC(=O)O)[C@@H](C)O,PROK,"proteolysis, substrate, HPLC",,room temperature,"relative to: PEGylated over non-PEGylated variant, negative = more stable",ln rate constant ratio,-2.2 ± 0.3
CC[C@H](C)[C@H](NC(=O)[C@H](C)NC(=O)[C@H](CCCNC(=N)N)NC(=O)CNC(=O)CNC(=O)[C@H](CCCNC(=N)N)NC(=O)[C@H](CCCNC(=N)N)NC(=O)[C@H](CCCNC(=N)N)NC(=O)[C@H](CCC(N)=O)NC(=O)[C@H](CCCNC(=N)N)NC(=O)[C@H](CCCNC(=N)N)NC(=O)[C@H](CCCCN)NC(=O)[C@H](CCCCN)NC(=O)[C@H](CCCNC(=N)N)NC(=O)CNC(=O)[C@@H](N)Cc1ccc(O)cc1)C(=O)N[C@H](C(=O)N[C@H](C(=O)N[C@@H](CC(C)C)C(=O)N[C@@H](CC(=O)O)C(=O)N[C@H](C(=O)N[C@@H](CCC(=O)O)C(=O)N[C@@H](CCCCN)C(=O)N[C@@H](CO)C(=O)O)[C@@H](C)O)[C@@H](C)CC)[C@@H](C)O,"Trypsin (Sus scrofa, UniProt P00761)",,,"1 mg/mL, pH 8.0, 37 °C, with: trypsin",,time to degradation,≤ 20 min
CCN(Cc1ccccc1)C(=O)CCc1nc(CN2CCN(C(=O)Cc3ccc(OC)c(OC)c3)CC2)no1,"SCN5A (Homo sapiens, UniProt Q14524)","ion current, whole-cell patch clamp",HEK stably expressing channel,10 µM,,inhibition,15 ± 6.9%
CC(C)(O)c1ccccc1CC[C@H](c1cccc(/C=C/c2ccc3ccc(Cl)cc3n2)c1)[S+]([O-])CC1(CC(=O)O)CC1 (stereo partly drawn),CYP1A2,inhibitor,human liver microsomes,"10 µM, pH 7.4, with: phenacetin",,inhibition,1.35%
CC[C@H](C)[C@@H]1NC(=O)[C@H](C(C)C)NC(=O)[C@H](C(C)C)NC(=O)[C@H](CC(C)C)NC(=O)C[C@@H](C(=O)N[C@@H](Cc2c[nH]c3ccccc23)C(=O)N[C@@H](CC(N)=O)C(=O)N[C@@H](C)C(=O)N2CCC[C@H]2C(=O)NCC(=O)N[C@@H](Cc2c[nH]c3ccccc23)C(=O)N[C@@H](Cc2ccc(O)cc2)C(=O)O)NC(=O)[C@H](C)NC(=O)[C@H](CCC(N)=O)NC(=O)[C@H](C(C)C)NC1=O,carboxypeptidase Y,,,"12 h, pH 6.0, 28 °C",,proteolytic stability,stable
CC[C@H](C)[C@H](NC(=O)[C@H](Cc1c[nH]cn1)NC(=O)[C@H](CC(N)=O)NC(=O)[C@H](Cc1ccccc1)NC(=O)[C@H](Cc1ccc(O)cc1)NC(=O)[C@H](Cc1ccc(O)cc1)NC(=O)[C@@H](NC(=O)[C@H](CCCNC(=N)N)NC(=O)CNC(=O)[C@H](CO)NC(=O)[C@H](CO)NC(=O)[C@H](CCCNC(=N)N)NC(=O)[C@H](CC(=O)N(CCOCCOCCOCCOC)CCOCCOCCOCCOC)NC(=O)[C@H](CCSC)NC(=O)[C@H](CCCNC(=N)N)NC(=O)[C@H](CCCCN)NC(=O)[C@H](CCC(=O)O)NC(=O)[C@H](Cc1c[nH]c2ccccc12)NC(=O)CNC(=O)[C@@H]1CCCN1C(=O)[C@@H]1CCCN1C(=O)[C@H](CC(C)C)NC(=O)[C@@H](N)CCCCN)C(C)C)C(=O)N[C@H](C(=O)N[C@@H](CC(N)=O)C(=O)N[C@@H](C)C(=O)N[C@@H](CO)C(=O)N[C@@H](CCC(N)=O)C(=O)N[C@@H](Cc1ccccc1)C(=O)N[C@@H](CCC(=O)O)C(=O)N[C@@H](CCCNC(=N)N)C(=O)N1CCC[C@H]1C(=O)N[C@@H](CO)C(=O)NCC(=O)O)[C@@H](C)O,PROK,"proteolysis, substrate, HPLC",,room temperature,"relative to: PEGylated over non-PEGylated variant, negative = more stable",ln rate constant ratio,-2.4 ± 0.3
Cc1cc(Br)c(O)c(Br)c1,"Cytochrome P450 2E1 (CYP2E1, Homo sapiens, UniProt P05181)","p-nitrophenol hydroxylation, inhibitor",,"10 min, with: p-nitrophenol 100 µM",,IC50,14 µM
CC[C@H](C)[C@H](NC(=O)[C@H](Cc1c[nH]cn1)NC(=O)[C@H](CC(N)=O)NC(=O)[C@H](Cc1ccccc1)NC(=O)[C@H](Cc1ccc(O)cc1)NC(=O)[C@H](CCn1cc(COCCOCCOCCOC)nn1)NC(=O)[C@@H](NC(=O)[C@H](CCCNC(=N)N)NC(=O)CNC(=O)[C@H](CO)NC(=O)[C@H](CO)NC(=O)[C@H](CCCNC(=N)N)NC(=O)[C@H](CO)NC(=O)[C@H](CCSC)NC(=O)[C@H](CCCNC(=N)N)NC(=O)[C@H](CCCCN)NC(=O)[C@H](CCC(=O)O)NC(=O)[C@H](Cc1c[nH]c2ccccc12)NC(=O)CNC(=O)[C@@H]1CCCN1C(=O)[C@@H]1CCCN1C(=O)[C@H](CC(C)C)NC(=O)[C@@H](N)CCCCN)C(C)C)C(=O)N[C@H](C(=O)N[C@@H](CC(N)=O)C(=O)N[C@@H](C)C(=O)N[C@@H](CO)C(=O)N[C@@H](CCC(N)=O)C(=O)N[C@@H](Cc1ccccc1)C(=O)N[C@@H](CCC(=O)O)C(=O)N[C@@H](CCCNC(=N)N)C(=O)N1CCC[C@H]1C(=O)N[C@@H](CO)C(=O)NCC(=O)O)[C@@H](C)O,PROK,"proteolysis, substrate, HPLC",,room temperature,"relative to: PEGylated over non-PEGylated variant, negative = more stable",ln rate constant ratio,-0.4 ± 0.3
CC(=O)NCc1cccc(C(=O)Nc2cccc3c(S(=O)(=O)O)cc(C(=O)NCc4cccc(C(=O)Nc5cccc6c(S(=O)(=O)O)cc(C(=O)NCC(=O)N[C@@H](CC(C)C)C(=O)N[C@@H](CCCCN)C(=O)N[C@@H](C)C(=O)NCC(=O)O)nc56)n4)nc23)n1,pronase E,"substrate, RP-HPLC",,"pH 7.5, room temperature",,half-life,9 min
O=C1Cc2cc(CCN3CCN(C4=NS(=O)(=O)c5ccccc54)CC3)c(Cl)cc2N1,CYP1A2,inhibitor,human liver microsomes,"2 µM, pH 7.4, with: phenacetin",,inhibition,11.7%
CC[C@H](C)[C@H](NC(=O)[C@H](Cc1c[nH]cn1)NC(=O)[C@H](CC(N)=O)NC(=O)[C@H](Cc1ccccc1)NC(=O)[C@H](Cc1ccc(O)cc1)NC(=O)[C@H](Cc1ccc(O)cc1)NC(=O)[C@@H](NC(=O)[C@H](CCCNC(=N)N)NC(=O)CNC(=O)[C@H](CO)NC(=O)[C@H](CO)NC(=O)[C@H](CCCNC(=N)N)NC(=O)[C@H](CO)NC(=O)[C@H](CCSC)NC(=O)[C@H](CCCNC(=N)N)NC(=O)[C@H](CCCCN)NC(=O)[C@H](CCC(=O)O)NC(=O)[C@H](Cc1c[nH]c2ccccc12)NC(=O)CNC(=O)[C@@H]1CCCN1C(=O)[C@@H]1CCCN1C(=O)[C@H](CC(C)C)NC(=O)[C@@H](N)CCCCN)C(C)C)C(=O)N[C@@H](Cc1ccc(OCc2cn(CCOCCOCCOCCOC)nn2)cc1)C(=O)N[C@@H](CC(N)=O)C(=O)N[C@@H](C)C(=O)N[C@@H](CO)C(=O)N[C@@H](CCC(N)=O)C(=O)N[C@@H](Cc1ccccc1)C(=O)N[C@@H](CCC(=O)O)C(=O)N[C@@H](CCCNC(=N)N)C(=O)N1CCC[C@H]1C(=O)N[C@@H](CO)C(=O)NCC(=O)O,PROK,"proteolysis, substrate, HPLC",,room temperature,"relative to: PEGylated over non-PEGylated variant, negative = more stable",ln rate constant ratio,-0.1 ± 0.4

# Excerpt of the above:
SMILES,target,test,test system,setting,scale,endpoint,result
C=CC(=O)Nc1cc(Nc2nccc(-c3cn(C)c4ccccc34)n2)c(OCC(F)(F)F)nc1N(C)CCN(C)C,"Cytochrome P450 3A4 (CYP3A4, Homo sapiens, UniProt P08684)","enzyme activity, inhibitor","human, liver microsomes","1 µM, midazolam probe",,activity vs control,77.7%
